Measured values of several laboratories.
Numbers after ± are the reported error.
Alpha-galactosidase: Alpha-galactosidase (Coffea arabica, UniProt Q42656)
BIRC3 BIR3: Baculoviral IAP repeat-containing protein 3, BIR3 (BIRC3, Homo sapiens, UniProt Q13489)
Beta-lactamase CTX-M-27: Beta-lactamase CTX-M-27 (Escherichia coli, UniProt Q840M4)
NOS3: Nitric oxide synthase 3 (NOS3, Bos taurus, UniProt P29473)
CASP7: Caspase-7 (CASP7, Homo sapiens, UniProt P55210)
CA5A: Carbonic anhydrase 5A, mitochondrial (CA5A, Homo sapiens, UniProt P35218)
VIM-2: Metallo-beta-lactamase VIM-2 (VIM-2, Escherichia coli, UniProt Q5U7L7)
BIRC2 BIR3: Baculoviral IAP repeat-containing protein 2, BIR3 (BIRC2, Homo sapiens, UniProt Q13490)

CCCCCCCCNC(=S)N1[C@H](CCCCCCCC)[C@H](O)[C@@H](O)[C@H](O)[C@H]1CO — Ki (Alpha-galactosidase; enzyme activity, competitive inhibitor; green coffee bean enzyme, optimal pH, together with: p-nitrophenyl glycopyranoside): > 2000 µM
CN[C@@H](C)C(=O)N[C@H]1CN(C(=O)Cc2ccccc2)CC[C@H]2CC[C@@H](C(=O)NCc3ccc(C)cc3)N2C1=O — Ki (BIRC3 BIR3; ligand displacement, FP): 0.0116 µM
CCCCCCCC/N=C1/SC[C@@H]2[C@@H](O)[C@H](O)[C@@H](O)[C@@H](CCC)N12 — Ki (Alpha-galactosidase; enzyme activity, competitive inhibitor; green coffee bean enzyme, optimal pH, together with: p-nitrophenyl glycopyranoside): > 2000 µM
COc1cc(CNC(=O)C[C@H](C)CCC=C(C)C)ccc1OCc1cn(-c2ccc(Cl)cc2Cl)nn1 — growth percent (SR leukaemia cells; SRB; 10 µM, 48 h): 79.8%
O=C(Nc1cccc(-c2nn[nH]n2)c1)c1cc(-c2ccccn2)cc(C(F)(F)F)c1 — Ki (Beta-lactamase CTX-M-27; enzyme activity, inhibitor, absorbance; pH 7): 3.92 µM
O=c1c2ccccc2n(CC2CC2)c(=O)n1O — Ki (Flap endonuclease 1 (Homo sapiens, UniProt P39748); inhibitor; together with: double-flap substrate DF1): 0.017 ± 0.002 µM
O=C(O)CC[C@H](NC(=O)/C=C/c1ccc(O)c(O)c1)C(=O)NCCCOc1c(-c2ccc(O)c(O)c2)oc2cc(O)cc(O)c2c1=O — Ki (Pancreatic alpha-amylase (Homo sapiens, UniProt P04746); inhibitor; pH 7): 34 ± 5 µM
O=C(Nc1cccc(-c2nn[nH]n2)c1)c1cc(-c2cc[nH]c2)cc(C(F)(F)F)c1 — Ki (Beta-lactamase CTX-M-27; enzyme activity, inhibitor, absorbance; pH 7): 2.07 µM
O=C(O)c1ccc2nc(-c3ccc(OCCCCCCOc4ccc(-c5nc6ccc(C(=O)O)cc6[nH]5)cc4)cc3)[nH]c2c1 — Ki (Dihydrofolate reductase type 2 (Escherichia coli, UniProt P00383); enzyme activity, inhibitor; pH 7): 5.5 ± 3 µM
CN[C@@H](C)C(=O)N[C@H]1CN(C(=O)Cc2ccccc2)CC[C@H]2CC[C@@H](C(=O)NCc3ccccc3C(F)(F)F)N2C1=O — Ki (BIRC3 BIR3; ligand displacement, FP): 0.0554 µM
C[C@H]1CN(C(=O)c2nc(Nc3cc(C4CC4)[nH]n3)c3cc(Cl)ccc3n2)CCN1 — Ki (PAK4 (Homo sapiens, UniProt O96013); cell-free assay, inhibitor, TR-FRET): 0.005 µM
Cc1cc(N)nc(C[C@H]2CNC[C@H]2OCCC/C=C/c2cccc(F)c2)c1 — Ki (NOS3; enzyme activity, inhibitor; pH 7.4): 69 µM
CC(=O)NCC(=O)N[C@@H](CC(=O)O)C(=O)N[C@@H](Cc1ccc(O)cc1)C(=O)N[C@@H](CO)C(=O)N[C@@H](Cc1cnc[nH]1)C(=O)N[C@H]1CSSC[C@@H](C(=O)N[C@H](C(=O)N[C@@H](Cc2ccc(O)cc2)C(=O)N2CCC[C@H]2C(=O)N[C@@H](CC(=O)O)C(=O)N2CCC[C@H]2C(=O)N[C@@H](CCC(=O)O)C(=O)NCC(=O)NCC(=O)NCC(N)=O)[C@@H](C)O)NC(=O)[C@H](CCCCN)NC(=O)[C@H](Cc2c[nH]c3ccccc23)NC(=O)[C@H](Cc2c[nH]c3ccccc23)NC(=O)[C@@H]2CCCN2C(=O)[C@H](Cc2ccc(O)cc2)NC(=O)[C@H](Cc2ccc(O)cc2)NC(=O)[C@H](CCCNC(=N)N)NC(=O)[C@H](CC(C)C)NC(=O)[C@@H]2CCCN2C(=O)[C@H](CO)NC1=O — Ki (ACE2 (Homo sapiens, UniProt Q9BYF1); enzyme activity, inhibitor, fluorescence): 0.02 µM
CN[C@@H](C)C(=O)N[C@H]1CN(C(=O)Cc2ccccc2)CC[C@H]2CC[C@@H](C(=O)NCc3ccc(Cl)cc3)N2C1=O — Ki (BIRC3 BIR3; ligand displacement, FP): 0.003 µM
CC(=O)NCC(=O)N[C@@H](CCC(=O)O)C(=O)N[C@@H](CO)C(=O)N1CCC[C@H]1C(=O)N[C@H](C=O)CC(=O)O — Ki (CASP7; enzyme activity, inhibitor, fluorescence; pH 7): 1.91 µM
O=C(Nc1cccc(-c2nn[nH]n2)c1)c1cc(-n2ccnn2)cc(C(F)(F)F)c1 — Ki (Beta-lactamase CTX-M-27; enzyme activity, inhibitor, absorbance; pH 7): 3.65 µM
O=C1c2c(O)cccc2[C@H]([C@@H]2O[C@H](CO)[C@@H](O)[C@H](O)[C@H]2O)c2cc(CO)cc(O)c21 — Ki (IDO1 (Homo sapiens, UniProt P14902); uncompetitive inhibitor, Lineweaver-Burk plot): 68.6 µM
CCC[C@@H]1[C@H](O)[C@@H](O)[C@H](O)[C@@H](CO)N1C(=S)NCCc1ccccc1 — Ki (Alpha-galactosidase; enzyme activity, competitive inhibitor; green coffee bean enzyme, optimal pH, together with: p-nitrophenyl glycopyranoside): > 2000 µM
COCCOc1cc2ncnc(Nc3cccc(-c4cn(Cc5ccc(S(N)(=O)=O)cc5)nn4)c3)c2cc1OCCOC — Ki (CA5A; enzyme activity, inhibitor, stopped-flow): 0.013 µM
CN[C@@H](C)C(=O)N[C@H]1CN(C(=O)Cc2ccccc2)CC[C@H]2CC[C@@H](C(=O)NCc3ccc([N+](=O)[O-])cc3)N2C1=O — Ki (BIRC3 BIR3; ligand displacement, FP): 0.0314 µM
Cc1cc(N)nc(CC2CNCC2OCCNCC(F)(F)C2CCCCN2)c1 (stereo not shown) — Ki (NOS3; enzyme activity, inhibitor, hemoglobin capture): 64 µM
CC(C)C[C@@H]1NC(=O)[C@H](Cc2ccccc2)NC(=O)[C@H](Cc2ccc(O)cc2)NC(=O)[C@@H](O)CSSC[C@@H](C(=O)N2CCC[C@H]2C(=O)N[C@@H](CCCCNC(=O)CCCCCCCCCCN)C(=O)NCC(N)=O)NC(=O)[C@H](CC(N)=O)NC1=O — Ki (AVPR2 (Homo sapiens, UniProt P30518); ligand displacement, radioligand; cell membranes): 45 µM
COCCOc1cc2ncnc(Nc3cccc(-c4cn(Cc5ccc(C(=O)NCCc6ccc(S(N)(=O)=O)cc6)cc5)nn4)c3)c2cc1OCCOC — Ki (CA5A; enzyme activity, inhibitor, stopped-flow): 0.0062 µM
CN(C)CCN(Cc1ccncc1)Cc1c(Cl)cccc1Cl — Ki (SLC6A2 (Homo sapiens, UniProt P23975); ligand displacement in cells, radioligand): 0.323 µM
CN[C@@H](C)C(=O)N[C@H]1CN(C(=O)Cc2ccccc2)CC[C@H]2CC[C@@H](C(=O)NCc3ccccc3)N2C1=O — Ki (BIRC3 BIR3; ligand displacement, FP): 0.0103 µM
CC(C)OC(=O)C(CS)N1C(=O)c2ccc(N(C)C)cc2C1=O (stereo not shown) — Ki (VIM-2; enzyme activity, inhibitor; Km 8 µM, together with: chromacef 25 µM): 0.08 ± 0.01 µM
CCC[C@H]1CC[C@H](c2ccc(NC(=S)NC[C@@H]3[C@@H](O)[C@@H](O)[C@H]4[C@H](O)CCCN43)cc2)CC1 — Ki (Alpha-mannosidase 2 (Homo sapiens, UniProt Q16706, Y354A); enzyme activity, inhibitor; together with: Man-α-4MU substrate): 1.92 µM
Cc1cc(N)nc(C[C@H]2CNC[C@H]2OCCCCCc2cccc(F)c2)c1 — Ki (NOS3; enzyme activity, inhibitor; pH 7.4): 34 µM
CN[C@@H](C)C(=O)N[C@H]1CN(C(=O)Cc2ccccc2)CC[C@H]2CC[C@@H](C(=O)NCc3ccccc3Cl)N2C1=O — Ki (BIRC2 BIR3; ligand displacement, FP): 0.0208 µM
COCCOc1cc2ncnc(Nc3cccc(-c4cn(-c5ccc(S(N)(=O)=O)cc5)nn4)c3)c2cc1OCCOC — Ki (CA5A; enzyme activity, inhibitor, stopped-flow): 0.0132 µM
CC1(C)C2=C3C=C4C5=[N+](CCC4OC3CCN2c2ccc(S(=O)(=O)[O-])cc21)c1ccc(C(=O)NCCCCOc2ccc(C(=O)CCCN3CCC(O)(c4ccc(Cl)cc4)CC3)cc2)cc1C5(C)C (stereo not shown) — Ki (DRD1 (Homo sapiens, UniProt P21728); cell-free assay, radioligand): 3.6 µM
CCCCCCCCCCCCCCN(O)C(=O)CCCCC[C@@H]1NC(=O)[C@H]([C@@H](C)CC)NC(=O)[C@H](Cc2ccccc2C(F)(F)F)NC(=O)CCSCc2cccc(n2)CSCCCNC1=O — Ki (HDAC11 (Homo sapiens, UniProt Q96DB2); enzyme activity, inhibitor, fluorescence): 0.05 µM
CN[C@@H](C)C(=O)N[C@H]1CN(C(=O)Cc2ccccc2)CC[C@H]2CC[C@@H](C(=O)NCc3ccc(F)cc3)N2C1=O — Ki (BIRC2 BIR3; ligand displacement, FP): 0.0018 µM
O=C(Nc1cccc(-c2nn[nH]n2)c1)c1cc(-c2ccncc2)cc(C(F)(F)F)c1 — Ki (Beta-lactamase CTX-M-27; enzyme activity, inhibitor, absorbance; pH 7): 3.06 µM
CC(C)C[C@H](NC(=O)[C@H](CCCNC(=N)N)NC(=O)[C@H](Cc1ccc(O)cc1)NC(=O)CCCCCCC(=O)N[C@@H](Cc1ccc(O)cc1)C(=O)N[C@@H](CCCNC(=N)N)C(=O)N[C@@H](CC(C)C)C(=O)NN(CCCNC(=N)N)C(=O)N[C@@H](Cc1ccc(O)cc1)C(N)=O)C(=O)NN(CCCNC(=N)N)C(=O)N[C@@H](Cc1ccc(O)cc1)C(N)=O — Ki (NPY1R (Homo sapiens, UniProt P25929); ligand displacement, radioligand): 3.73 µM
COc1cc(CNC(=O)C[C@H](C)CCC=C(C)C)ccc1OCc1cn(-c2cccc([N+](=O)[O-])c2)nn1 — growth percent (Malme-3M melanoma cells; SRB; 10 µM, 48 h): 71.4%
CC[C@H](C)[C@H](NC(C)=O)C(=O)N[C@H](C(=O)N[C@H](C(=O)N[C@@H](CCCCN)C(=O)N[C@H](C=O)CC(=O)O)C(C)C)[C@@H](C)O — Ki (CASP7; enzyme activity, inhibitor, fluorescence; pH 7): 5.62 µM
CN[C@@H](C)C(=O)N[C@H]1CN(C(=O)Cc2ccccc2)CC[C@H]2CC[C@@H](C(=O)NCc3ccc(C(C)(C)C)cc3)N2C1=O — Ki (BIRC2 BIR3; ligand displacement, FP): 0.236 µM
COCCOc1cc2ncnc(Nc3cccc(-c4cn(-c5cccc(S(N)(=O)=O)c5)nn4)c3)c2cc1OCCOC — Ki (CA5A; enzyme activity, inhibitor, stopped-flow): 0.0116 µM
CN(C)c1ccc2c(c1)C(=O)N(C(C(=O)O)C(C)(C)S)C2=O (stereo not shown) — Ki (VIM-2; enzyme activity, inhibitor; Km 8 µM, together with: chromacef 25 µM): > 3 µM
